Experimental data of several laboratories.
Protocols differ between the studies behind these lines.
BRD9: Bromodomain-containing protein 9 (BRD9, Homo sapiens, UniProt Q9H8M2)
D14: D14 (Arabidopsis thaliana, UniProt Q9SQR3)
VRK1: Serine/threonine-protein kinase VRK1 (VRK1, Homo sapiens, UniProt Q99986)
Fibroblast growth factor 14: Fibroblast growth factor 14 (Homo sapiens, UniProt Q92915)

`COC(=O)c1c(OC)cc(-c2cc(C(C)=O)n3ccccc23)cc1OC` gave a ΔTm of 7.5 °C (BRD9; thermal stability, DSF; 200 µM).
`CC1=C(/C=C/C(C)=C/C=O)C(C)(C)C[C@H](O)C1` has a ΔTm of -8.72 °C (D14; thermal stability, DSF; 100 µM).
`Cc1cc([C@@H](C)Nc2ccccc2C(=O)O)c2nc(N3CCC(F)(F)CC3)c(C#N)c(=O)n2c1` gave a remaining binding of 100% (EPHA2 (Homo sapiens, UniProt P29317); binding, competition with immobilised ligand; 10 µM).
`Cn1c2c(c3ccc(Cl)c(Cl)c31)C(C#N)C1(CCNCC1)NC2=O` (racemic) has a ΔTm of 0.3 °C (VRK1; thermal stability, DSF; 10 µM).
With `CCCCC(=O)Nc1ccc(-c2ccc3ncn(CCC)c(=O)c3c2)cn1` the remaining binding was 100% (EGFR (Homo sapiens, UniProt P00533, del752-759); binding, competition with immobilised ligand; 0.5 µM).
For `COc1ccc(OC)c(-c2cc(C(C)=O)n3ccccc23)n1`, the ΔTm was 3.5 °C (BRD9; thermal stability, DSF; 200 µM).
`Cc1cc2c(cc1N1C(=O)c3cccc4c(Cl)ccc(c34)C1=O)n(C)c(=O)n2C` has a ΔTm of 0.2 °C (ATAD2B (Homo sapiens, UniProt Q9ULI0); thermal stability, DSF; 10 µM).
The ΔTm of `CC1=CC(O/C=C2/C(=O)OC3c4ccccc4CC23)OC1=O` (racemic) is reported as -7.91 °C (D14; thermal stability, DSF; 100 µM).
With `C1=C/COCc2cc(ccc2OCCN2CCCC2)Nc2nccc(n2)-c2cccc(c2)COC/1` the remaining binding was 100% (FES (Homo sapiens, UniProt P07332); binding; 0.1 µM).
`CCN(CC)Cc1c(OC)cc(-c2cc(C(C)=O)n3ccccc23)cc1OC` has a ΔTm of 15 °C (BRD9; thermal stability, DSF; 200 µM).
`CNc1ncc2c(/C=C/C(=O)N3CCC(OC)CC3)nn(Cc3cccc(C(F)(F)F)c3)c2n1` has a remaining activity of 99% (PKN2 (Homo sapiens, UniProt Q16513); enzyme activity, inhibitor, radiometric; 1 µM).
The ΔTm of `Cn1c2c(c3ccc(Cl)c(Cl)c31)C(C#N)C1(CCOCC1)NC2=O` (stereo not shown) is reported as 0 °C (VRK1; thermal stability, DSF; 10 µM).
`O=c1cc(-c2ccc([N+](=O)[O-])cc2)[nH]c2c(-c3ccc(Cl)cc3)c(Cc3ccccc3)nn12` has a ΔTm of 2.1 °C (Fibroblast growth factor 14; thermal stability; 25 µM).
The ΔTm of `COc1cc(-c2cc(C(C)=O)n3ccccc23)cc(OC)c1Cn1ccnc1` is reported as 14 °C (BRD9; thermal stability, DSF; 200 µM).
With `CC(=O)Nc1ccc(S(=O)(=O)N2CCN(CC(O)COc3ccc4ccccc4c3)CC2)cc1` (stereo not shown) the ΔTm was 3.1 °C (Fibroblast growth factor 14; thermal stability; 25 µM).
`COc1cc(-c2cncc3c2CN(C)Cc2cc(N4CCNCC4)ccc2-3)cc(OC)c1OC` has a remaining activity of 110% (RPS6KA1 (Homo sapiens, UniProt Q15418); enzyme activity, inhibitor; 1 µM).
`C=CC(=O)N1CCC(COCC(=O)N2CCN(c3nc(-c4cnc(N)nc4C(F)F)nc(N4CCOC[C@@H]4C)n3)CC2)CC1` has a remaining binding of 85% (PRKCE (Homo sapiens, UniProt Q02156); binding, competition with immobilised ligand; 1 µM).
`CC(C)[C@@H]1NC(=O)[C@@H]2CCCN2C(=O)[C@H](Cc2ccccc2)NC(=O)CSC[C@@H](C(=O)N[C@@H](Cc2ccc(O)cc2)C(N)=O)NC(=O)[C@H](Cc2c[nH]c3ccccc23)NC(=O)[C@H](CCCCN)NC(=O)[C@H](Cc2ccccc2)N(C)C(=O)[C@H](Cc2ccccc2)NC1=O` gave a ΔTm of 5.51 °C (STING1 (Homo sapiens, UniProt Q86WV6, H232R); thermal stability, DSF; 100 µM).
With `Cc1cccc(NC(=O)Cn2cc(CO)c3ccccc32)c1` the ΔTm was 2.3 °C (Fibroblast growth factor 14; thermal stability; 25 µM).
